Results of several laboratories.
Numbered parts are unrelated; each lists some results of a single study.

Set 1
Target: RNA binding protein fox-1 homolog 2, RRM domain, GST-SBP tag (RBFOX2, Homo sapiens, UniProt O43251-10, residues 100-194)
Method: RNA Bind-n-Seq
Molecule type: RNA
Medium: in vitro
Concentration: 365 nM
Setting: natural RNA segment, single round, ends assumed
Reference: no-protein control
Reading: higher = stronger binding
Constant ends, left off below: GGGAGUUCUACAGUCCGACGAUC … UGGAAUUCUCGGGUGCCAA
Target sequence (chain): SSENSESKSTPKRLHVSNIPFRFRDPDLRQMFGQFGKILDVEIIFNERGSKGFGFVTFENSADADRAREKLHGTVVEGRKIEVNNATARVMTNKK
| Oligonucleotide | RBNS enrichment (R) |
| --- | --- |
| AGUGCUUCAAAUACUUAGAAUUCUAAUAUGAGAGAUAGUUUAAUAUUCUGGAAUAGAGAGUAUUUUAAAUUGAAAUGACCAAAUUCGAUUUAAAACAAACACAUAACAAU | 0.593 |
| GUGGUUUCAAAAUCUCUGGCACCAUCUUGACCUCUUGGCUCUCUCUGCACUUUGCCCCCUGUCUCAAAAAUGUCCCUCAUGUCCAUUUCCUGUCCAGGAGACUCAUGAGG | 0.372 |
| CUUUUUGUAUUUUUUAGUAGAGAUGGGGUUUACCAUGUUGGCCAGGCUAGUCUCAAACUCCUGACCUAGUGAUGCACCCACCUUGGCCUCCCAAAGUGUUGGGAUUACAG | 0.48 |
| CUUCAGUCCUCGUCCUCUCUUUGUGGCUGGCUCCCAGCCUUCUCUUUCCUCUUGAGGAUACUUAGGGUAAACUGGAUCCUUCCUGCUCAAGGAUCCUCAUUUGUAUACCU | 0.452 |
| CUCAUAAGUAAAUGUCUUCAUGUUGAUGUGUCCGUGAAAGUUGUGAUCUGUUGUAAUAUCAGUUACAGUGGCAGUAUUGACAAUAAGAAACAGUUUAACAGAAAAAUGAA | 0.394 |
| CUUUCAGUGUACUAAAAGGCAGAAAGGUCAUCACAACUUUAGUGUCAGAAUCUAUAGUGGUGGCAAAGUUAGGAUAGCUCUUUAGUAAUUUGGGCCCAGUGCCUUGGUGA | 0.41 |
| AGAUGUUAUUACUGUACUUUCCCCAAAUUCUGCUCCUGUACUUGCAAACUGAAGGUAACUAUACCUAGACUUAAAUCCUAAGGAAGCAAGUUACCUUCUGGGCAAAGGCU | 0.225 |
| UUCUGUGUGAGUAAACCGAGAGUUACCAUGUGGCCUCCUUGUGUCUAAAUGUUCCCUCUGUUCAGCUUAGCAACCCUCCCCCCUUUGCUAUGUAACGCGAUCCCAUUUGC | 0.56 |

Set 2
Target: Histone acetyltransferase KAT6A, both winged helices, GST fusion (KAT6A, Homo sapiens, UniProt Q92794, residues 1-181)
Method: protein binding microarray
Molecule type: double-stranded DNA, one strand shown
Medium: in vitro
Concentration: not given
Setting: 8-mer, flanks averaged, mean of 2 arrays, mostly near background
Reference: not given
Reading: higher = stronger binding
Construct (chain): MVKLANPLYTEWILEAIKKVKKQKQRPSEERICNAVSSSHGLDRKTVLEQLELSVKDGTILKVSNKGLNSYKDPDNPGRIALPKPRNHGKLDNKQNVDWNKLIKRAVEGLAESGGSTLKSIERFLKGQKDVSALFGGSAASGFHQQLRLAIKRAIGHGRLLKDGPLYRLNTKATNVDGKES
| Oligonucleotide | E-score |
| --- | --- |
| AATATGCA | -0.0321 |
| GCATTATA | -0.0258 |
| TGACGCCA | -0.0142 |
| CATATCTA | 0.0208 |
| CTTGTACA | -0.0488 |
| AAAACGCA | 0.107 |
| AAACTAGT | -0.114 |
| AAGCCGGT | 0.261 |
| ACATACAC | 0.00309 |
| ATTTGTTC | -0.00999 |
| AGGATGTA | -0.0877 |
| AACTTGCC | -0.108 |
| GTTATCCA | -0.172 |
| AACAGTGC | -0.00252 |
| CAACATAA | 0.087 |
| AGAGCTTG | -0.19 |
| GAGTGTAA | -0.085 |
| ACGTGCGA | 0.052 |
| GAGATGTA | -0.072 |

Set 3
Target: Interferon regulatory factor 7, full length, phosphomimetic (IRF7, Homo sapiens, UniProt Q92985, residues 1-503, S101K/S471D/S472D/S475D/S476D/S477D/S483D/S484D/S487D)
Method: protein-binding microarray
Molecule type: double-stranded DNA, one strand shown
Medium: in vitro
Concentration: 250 nM
Setting: 60-bp whole probe
Added: salmon DNA 0.4 mg/ml
Reference: random background probes
Reading: higher = stronger binding
Constant ends, left off below: GCCTAGCAC … GTCTTGATTCGCTTGACGCTGCTG
Residues (chain): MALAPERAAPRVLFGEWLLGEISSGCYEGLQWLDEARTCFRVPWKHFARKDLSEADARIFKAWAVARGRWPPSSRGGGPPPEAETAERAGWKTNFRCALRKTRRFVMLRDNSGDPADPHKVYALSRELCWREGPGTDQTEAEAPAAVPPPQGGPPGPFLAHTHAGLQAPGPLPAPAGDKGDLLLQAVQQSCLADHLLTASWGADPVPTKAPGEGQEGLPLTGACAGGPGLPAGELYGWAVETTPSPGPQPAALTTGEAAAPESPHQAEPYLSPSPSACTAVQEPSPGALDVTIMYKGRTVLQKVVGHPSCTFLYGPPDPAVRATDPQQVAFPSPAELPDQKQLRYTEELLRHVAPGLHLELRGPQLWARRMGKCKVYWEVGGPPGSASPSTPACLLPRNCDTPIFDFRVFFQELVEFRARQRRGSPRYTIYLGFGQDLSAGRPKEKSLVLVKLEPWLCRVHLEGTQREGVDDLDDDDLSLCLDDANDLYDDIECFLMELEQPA
| Oligonucleotide | log fluorescence |
| --- | --- |
| GACGATATCGGTCTCGAGACGTGCTAG | 0.521 z-score |
| TTACTTCCCAATTGTCTTTTCGTGCTA | 2.11 z-score |
| TTAGGACTGGGACTGGGTTCGTGCTAG | -0.444 z-score |
| TGTGTTATTAAATTTTCACGGGTGCTA | 0.523 z-score |
| TTAGGACTGGACTATCGCTTAGTGCTA | -0.461 z-score |
| TTAGGACTGGACTTTCGGCTAGTGCTA | -0.372 z-score |
| TCATGGTTCTGCTTCTTACTGTGCTAG | 0.13 z-score |
| TACGGTATCGGGTATCGGGACGTGCTA | 0.575 z-score |
| GACGACCTGGGGTTTCGAGACGTGCTA | 1.77 z-score |
| GACGGACTGGACTTTCGGAACGTGCTA | -0.245 z-score |
| TTAGAACTGCTACTGCTTTAGTGCTAG | -0.21 z-score |
| TTATATTTCGGGACTGGATTAGTGCTA | 0.86 z-score |
| TTTTTTTTTTTTTTTTGGAAGTGCTAG | 0.664 z-score |
| TAAGGTTTCGACTATCGGTTAGTGCTA | 5.97 z-score |

Set 4
Target: PABPC1L2, full length, GST fusion (mouse, UniProt A0ABA7IW68)
Method: RNAcompete
Molecule type: RNA
Medium: in vitro
Concentration: 20 nM
Setting: 7-mer, probes averaged, single round
Reference: mean of 7-mers
Reading: higher = stronger binding
Target sequence (chain): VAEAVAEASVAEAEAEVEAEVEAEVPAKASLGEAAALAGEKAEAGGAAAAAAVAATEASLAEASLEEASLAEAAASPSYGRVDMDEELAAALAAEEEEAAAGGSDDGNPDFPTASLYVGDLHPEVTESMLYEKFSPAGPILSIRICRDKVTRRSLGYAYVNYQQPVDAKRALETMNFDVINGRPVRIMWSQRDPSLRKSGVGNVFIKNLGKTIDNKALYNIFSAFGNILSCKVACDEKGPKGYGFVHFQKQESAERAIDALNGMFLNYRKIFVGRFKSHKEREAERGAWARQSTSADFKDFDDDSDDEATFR
| Oligonucleotide | 7-mer Z-score |
| --- | --- |
| AAUAAUC | 0.403 |
| CUAACUU | -0.331 |
| UCGAAGA | -0.0428 |
| CUGUAAG | -0.202 |
| UUCCGAA | -0.012 |
| GGACCUA | -0.0591 |
| AGCGUCC | -0.0156 |
| CUGAUUA | -0.255 |
| CGCCGAG | -0.193 |
| CUAUUGC | -0.342 |
| CCGCUAA | -0.0446 |
| CACUACU | -0.248 |
| CCGCAAC | -0.215 |
| ACACGGG | 0.24 |
| AGUAUGA | 0.0478 |
| GCAACUC | -0.208 |
| GUCCCGU | -0.338 |
| CAAGUGA | -0.0863 |
| AACAACA | 0.715 |
| AAUGGAG | 0.206 |
| UCUCCCA | -0.3 |
| ACAGACG | 0.122 |
| ACAUCCU | -0.188 |
| GUGCUGG | -0.00108 |

Set 5
Target: Prothrombin, mature alpha-thrombin (F2, Homo sapiens, UniProt P00734)
Method: aptamer microarray, sandwich
Molecule type: DNA with 2'F-ANA
Medium: in vitro
Concentration: 200 nM
Setting: whole 15-mer aptamer, many near background
Added: Cy3 exosite-II aptamer, 400 nM
Reading: higher = stronger binding
Oligonucleotide: GGTTGGTGTGGTTGG
| Modification | mean fluorescence intensity |
| --- | --- |
| 2'F-ANA at 3 6 7 8 | 1170 a.u. |
| 2'F-ANA at 1 4 6 8 10 13 | 69.5 a.u. |
| 2'F-ANA at 4 7 13 | 272 a.u. |
| 2'F-ANA at 2 3 5 8 10 13 | 60.7 a.u. |
| 2'F-ANA at 2 3 4 5 7 11 12 13 14 | 53.5 a.u. |
| 2'F-ANA at 1 3 4 8 9 11 13 14 15 | 63.6 a.u. |
| 2'F-ANA at 2 3 4 10 11 12 15 | 303 a.u. |
| 2'F-ANA at 1 3 4 5 10 13 15 | 59.4 a.u. |
| 2'F-ANA at 1 2 3 6 9 13 | 138 a.u. |
| 2'F-ANA at 2 3 7 8 9 10 11 12 13 15 | 394 a.u. |
| 2'F-ANA at 2 3 4 7 8 10 13 15 | 268 a.u. |
| 2'F-ANA at 1 2 6 8 10 11 12 | 60.4 a.u. |
| 2'F-ANA at 1 5 7 8 9 10 12 14 | 50.4 a.u. |
| 2'F-ANA at 4 5 6 11 13 14 | 48 a.u. |
| 2'F-ANA at 3 7 10 12 13 14 | 481 a.u. |
| 2'F-ANA at 4 11 12 | 458 a.u. |
| 2'F-ANA at 5 6 8 9 11 14 | 56.7 a.u. |
| 2'F-ANA at 2 11 13 14 15 | 196 a.u. |
| 2'F-ANA at 2 3 6 7 8 9 10 12 14 15 | 261 a.u. |
| 2'F-ANA at 1 2 3 8 10 11 12 | 82.2 a.u. |
| 2'F-ANA at 3 5 8 10 13 15 | 56.2 a.u. |
| 2'F-ANA at 1 2 3 4 6 10 11 12 13 14 15 | 52.5 a.u. |
| 2'F-ANA at 1 3 4 6 7 8 9 11 12 15 | 327 a.u. |

Excerpt of the above (set 5):
| Modification | mean fluorescence intensity |
| --- | --- |
| 2'F-ANA at 1 5 7 8 9 10 12 14 | 50.4 a.u. |
| 2'F-ANA at 4 7 13 | 272 a.u. |
| 2'F-ANA at 3 7 10 12 13 14 | 481 a.u. |
| 2'F-ANA at 2 3 7 8 9 10 11 12 13 15 | 394 a.u. |
| 2'F-ANA at 5 6 8 9 11 14 | 56.7 a.u. |
| 2'F-ANA at 1 2 3 6 9 13 | 138 a.u. |
| 2'F-ANA at 4 5 6 11 13 14 | 48 a.u. |
| 2'F-ANA at 2 3 6 7 8 9 10 12 14 15 | 261 a.u. |
| 2'F-ANA at 2 3 5 8 10 13 | 60.7 a.u. |
| 2'F-ANA at 3 6 7 8 | 1170 a.u. |
| 2'F-ANA at 2 3 4 7 8 10 13 15 | 268 a.u. |
| 2'F-ANA at 1 2 3 8 10 11 12 | 82.2 a.u. |
| 2'F-ANA at 1 4 6 8 10 13 | 69.5 a.u. |
| 2'F-ANA at 2 3 4 10 11 12 15 | 303 a.u. |
